{"data": "Published values gathered from unrelated publications", "note": "Numbered parts are unrelated; each lists some results of a single study."}
{"data": "Series 1", "target": "RING finger protein unkempt homolog, zinc fingers 1-6, GST-SBP tag (UNK, Homo sapiens, UniProt Q9C0B0, residues 30-357)", "technique": "RNA Bind-n-Seq", "molecule type": "RNA", "sample": "in vitro", "tested at": "not given", "setting": "RNA with constant flanks, human-mouse chimeric sites, ends assumed", "reference": "input RNA pool", "reading": "higher = stronger binding", "sequence of UniProt Q9C0B0 (30-357, looked up)": "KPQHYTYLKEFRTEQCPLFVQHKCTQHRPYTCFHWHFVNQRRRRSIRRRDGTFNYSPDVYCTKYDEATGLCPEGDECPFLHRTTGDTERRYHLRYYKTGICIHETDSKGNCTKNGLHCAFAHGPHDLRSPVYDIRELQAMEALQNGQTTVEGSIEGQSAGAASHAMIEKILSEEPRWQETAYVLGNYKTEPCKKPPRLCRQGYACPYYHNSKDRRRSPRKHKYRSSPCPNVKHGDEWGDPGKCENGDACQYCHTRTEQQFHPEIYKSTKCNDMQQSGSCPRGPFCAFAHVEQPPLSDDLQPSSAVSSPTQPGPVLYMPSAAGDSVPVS"}
{"Sequence": "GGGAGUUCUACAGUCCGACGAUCCGCGUCCUCUCGCUGCUGCGGAGCCCGAGCUGGGAACCAUUCCGGGACUGGUACCCUCCGCAUAGCCGCCUCUUCGAUCAAGCUUUCGGGGUGCCCCGGUUGCCCGAUGAGUGGUCGCAGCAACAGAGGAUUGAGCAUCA", "bound/input enrichment": "0.123 ratio"}
{"Sequence": "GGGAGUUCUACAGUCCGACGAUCUUGUGCAAUGAUGCUUGAGAUGGUUUUUGCAAAAGCAGACAUCGCUGCAAGGUAAUCACAAUAGAUAAAAGUGGUAUUUUAAACCUUUGAAAUAAAUGGAUGUAACUGUACCUUGGUACACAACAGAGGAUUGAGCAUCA", "bound/input enrichment": "0.896 ratio"}
{"Sequence": "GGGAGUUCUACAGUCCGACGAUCUUGCUACUAACUCCAUGGGUCAAGUUCCUGUGGGAGUCAUACAGGCAGUGUUUGGACCUUCUUCGAAACAAUUCUAGAGUAGAGCGCCUUUACCAUGAUAUCGCCCAACAAGCUUUCAAACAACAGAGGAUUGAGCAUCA", "bound/input enrichment": "0.151 ratio"}
{"Sequence": "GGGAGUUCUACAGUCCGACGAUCCACAGAGCAGCACCUACCCCCUCCUCCUUUCCACACCUGCAAACUCUUUUGCCUGGGCUGAAUAUUUAGUGUAAUUACAUCUCAGCUUUGAGGGCUCCUGUGGCAAAAUACCCGGAUAAACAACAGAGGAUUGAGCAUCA", "bound/input enrichment": "0.626 ratio"}
{"Sequence": "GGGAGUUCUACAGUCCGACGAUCAAAUCAUGUGUGUCAAAUAUUGAAAGUGCUUUAUCUACACUCCAGUAUGUAAGCAGUAUAGUAGUUUCUUUAGAGAAUAGGUCAGCCAUUGUAAAGUACAAUGCAAGCUUAGUCACUCCACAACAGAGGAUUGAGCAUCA", "bound/input enrichment": "10.3 ratio"}
{"Sequence": "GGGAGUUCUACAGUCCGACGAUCGAAAGAGAACUAAAGCAACUAAUAGAGAAGAGGAUUGGCAAAGAGAAUUUCAUAGAGAAACUAGGAUUUAUUAGCAAACAUGAGUUAUAUUCCAGAGCGUCUCAGAAACCCCAGCCAAACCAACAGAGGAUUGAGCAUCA", "bound/input enrichment": "5.93 ratio"}
{"data": "Series 2", "target": "RNA binding protein fox-1 homolog 2, RRM domain, GST-SBP tag (RBFOX2, Homo sapiens, UniProt O43251-10, residues 100-194)", "technique": "RNA Bind-n-Seq", "molecule type": "RNA", "sample": "in vitro", "tested at": "365 nM", "setting": "natural RNA segment, single round, ends assumed", "reference": "no-protein control", "reading": "higher = stronger binding", "Target sequence (chain)": "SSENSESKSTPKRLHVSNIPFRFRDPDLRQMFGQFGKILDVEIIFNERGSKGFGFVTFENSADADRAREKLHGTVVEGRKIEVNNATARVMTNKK"}
{"Sequence": "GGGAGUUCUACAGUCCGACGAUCAGAACUGAAAUUAGUUGGAAUUGUAAGCAGUGAAUAGAUGUGUUGUUAGAAUGAUUCCAUCACUUAUACAUUGUUUAAAAUGCUAAUAAAGUAACUUGCUUUGUAAGAAUUGGAAUUCUCGGGUGCCAA", "RBNS enrichment (R)": 1.56}
{"Sequence": "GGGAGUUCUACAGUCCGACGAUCAUGAUAUCCGUAUUUAAAAUGUAGUUAGUUAUAUUUAAUGACCUCAUUCCUAAGUUCCUUUUUCGUUAAUGUAGCUUUCAUUUCUGUUAUUGCUGUUUGAAUAAUAUGAUUGGAAUUCUCGGGUGCCAA", "RBNS enrichment (R)": 0.571}
{"Sequence": "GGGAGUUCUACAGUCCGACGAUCUUUUUCCCCAAAAGUAUUUUAAUUUCUCUACCAAAGGGGGAAAAGAAAGCAGGCUGAGGUUAUUAUUGCUAACACACCUCAGCCGAGCAGGCUAUGUACCUCGAAGGGAGUGGAAUUCUCGGGUGCCAA", "RBNS enrichment (R)": 0.335}
{"Sequence": "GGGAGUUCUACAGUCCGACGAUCUUUAGGGAGUAGUUUUCAUUCUACAUGAACUGAGGUAAUAUUAUGGUAACUCCAAUAUUUGGUUAAAAAAACUAUACAAAUCAGAAUAGUACUAAAAUACUGUAGAAUUUUGGAAUUCUCGGGUGCCAA", "RBNS enrichment (R)": 0.386}
{"Sequence": "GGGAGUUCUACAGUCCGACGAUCUAGGUCCUUUUUAAUCUGGGGUAUUACAGGCAGUACUUUAAAUCAGAGUCUUCCUGGCCUUUUUCCCUCCACCUUUUUGUAGUUACUCGGGGGCUUACUUGUGCAGUACUUGGAAUUCUCGGGUGCCAA", "RBNS enrichment (R)": 0.37}
{"Sequence": "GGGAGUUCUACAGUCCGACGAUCGAAAGCCACUCUAUUUUGGUCUCUGUGACAUUUUAAAUGCGUGACAGAAGUGAGCAAAUAAAGUGAGGAAGAAAUCUAUAUAUGAGAUAAUAUAGAUUGUAUUGAAAUCUUGGAAUUCUCGGGUGCCAA", "RBNS enrichment (R)": 0.385}
{"Sequence": "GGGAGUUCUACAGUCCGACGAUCUCUAAUCCAUGUAGCUUUUUGUUCAAUGACUUGAUCAUCUGCUUCCUUUUUGAAUUUUUAACAGAUAGUAAGUAAAUUUGGUGGUUUUUUCCCCUGGGUCAGUGAUGGAAUGGAAUUCUCGGGUGCCAA", "RBNS enrichment (R)": 0.36}
{"Sequence": "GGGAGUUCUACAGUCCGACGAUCAUAUGAAAUGCUAUGUAAAGUUUUCUAUGUAAAAAAAUAUUAUGUAUAAUACUGUUAAAUACCCCAUGCUUUGAUCAGGUGGAAAAAAUCAAUAAAGUUUUAAAAAGUAAUGGAAUUCUCGGGUGCCAA", "RBNS enrichment (R)": 0.988}
{"data": "Series 3", "target": "Fragile X messenger ribonucleoprotein 1, C-terminal low-complexity region (Fmr1, Mus musculus, UniProt P35922)", "technique": "RNA Bind-n-Seq", "molecule type": "RNA", "sample": "in vitro", "tested at": "200 nM", "setting": "whole 134-nt RNA, ends assumed", "with": "150 mM KCl", "reference": "input library", "reading": "higher = stronger binding"}
{"Sequence": "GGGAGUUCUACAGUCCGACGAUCCUCAAGUCCUGUGCUACACAUCGUAUGUACCGAAUCGGUGGUGGAAAAAAAGGAAAGUAUUAUGUUACGCCGUUCGGAUCUGCACUUCCAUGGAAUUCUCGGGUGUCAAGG", "log2 enrichment": -0.0315}
{"Sequence": "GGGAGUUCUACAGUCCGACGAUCUGGGAGGUGGAUUUUGUUUAUUUUUUUAGCUCAUUUCCAGGGGUGGGAAUUUUUUUUUAAUAUGUGUCAUGAAUUAAGUUGUUUUUGAAAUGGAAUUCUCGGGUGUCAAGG", "log2 enrichment": 0.39}
{"Sequence": "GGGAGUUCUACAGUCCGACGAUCUAACUUUAGAGGAGGAUCUGAUGGAUAUGGCAGUGGACGUGGAUUUGGCGAUGGCUAUAAUGGGUAUGGAGGAGGACCUGGAGGUGGCAAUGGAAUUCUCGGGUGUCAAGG", "log2 enrichment": 0.313}
{"Sequence": "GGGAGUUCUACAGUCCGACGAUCAAGUCCUGUGCUACACAUCGUAUGUACCGAAUCGGGAAAGGGUGGGAAAAAAAGGGAAAGUAUUAUGUUACGCCGUUCGGAUCUGCACUUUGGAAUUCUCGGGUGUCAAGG", "log2 enrichment": 0.35}
{"Sequence": "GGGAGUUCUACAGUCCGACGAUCUCCUGUGCUACACAUCGUAUGUACCGAAUCGGGCCCCCCCGGCCCCCCCGGCCCCCCCGGAAAGUAUUAUGUUACGCCGUUCGGAUCUGCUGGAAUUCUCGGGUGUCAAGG", "log2 enrichment": 0.339}
{"Sequence": "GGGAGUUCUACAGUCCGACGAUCAGUCCUGUGCUACACAUCGUAUGUACCGAAUCGGUUUUUGGGUUUUUGGUUUUUGGGAAAGUAUUAUGUUACGCCGUUCGGAUCUGCACUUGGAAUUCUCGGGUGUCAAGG", "log2 enrichment": -0.751}
{"Sequence": "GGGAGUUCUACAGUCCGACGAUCUCCUGUGCUACACAUCGUAUGUACCGAAUCGGGGAAAGGGGAAAAAAAGGGGAAAGGGGAAAGUAUUAUGUUACGCCGUUCGGAUCUGCAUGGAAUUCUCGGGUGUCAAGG", "log2 enrichment": 0.522}
{"Sequence": "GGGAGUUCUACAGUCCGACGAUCUGGGAGGUGGAUUUUGUUUAUUUUUUUAGCUCAUUUCCAGGGGUGGGAAUUUUUUUUGAAUAUGUGUCAUGAAUAAAGUUGUUUUUGAAAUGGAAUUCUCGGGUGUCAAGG", "log2 enrichment": 0.178}
{"Sequence": "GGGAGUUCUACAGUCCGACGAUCUCAAGUCCUGUGCUACACAUCGUAUGUACCGAAUCGGGAGGGUGGGAAAAAGGGAAAGUAUUAUGUUACGCCGUUCGGAUCUGCACUUCCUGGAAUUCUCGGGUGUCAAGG", "log2 enrichment": 1.04}
{"data": "Series 4", "target": "Phosphate system positive regulatory protein PHO4, full length, GST-tagged (PHO4, Saccharomyces cerevisiae, UniProt P07270, residues 1-312)", "technique": "competition protein-binding microarray", "molecule type": "double-stranded DNA, one strand shown", "sample": "in vitro", "tested at": "2 µM", "setting": "whole 60-bp probe, lowest competitor level", "with": "Cbf1 competitor, 0.05 µM", "reading": "higher = stronger binding", "Target sequence (chain)": "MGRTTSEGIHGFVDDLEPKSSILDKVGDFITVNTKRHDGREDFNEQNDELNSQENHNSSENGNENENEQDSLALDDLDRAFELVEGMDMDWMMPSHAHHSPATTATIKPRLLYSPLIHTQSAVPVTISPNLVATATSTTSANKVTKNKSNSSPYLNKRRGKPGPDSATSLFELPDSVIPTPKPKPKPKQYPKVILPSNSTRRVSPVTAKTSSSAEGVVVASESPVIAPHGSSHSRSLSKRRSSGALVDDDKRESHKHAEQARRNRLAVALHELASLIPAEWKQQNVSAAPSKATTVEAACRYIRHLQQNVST"}
{"Sequence": "TGCGCAACAACTTGTCTCGTGGGTGTATGTCTAGAAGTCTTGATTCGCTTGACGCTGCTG", "fluorescence intensity": "10100 a.u."}
{"Sequence": "TCTCTTTCGAAAATGCTCGTGTAGCTCAGTGGTTAGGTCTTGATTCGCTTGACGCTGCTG", "fluorescence intensity": "7130 a.u."}
{"Sequence": "CTAACGAAGGTTTTTCACGTGATATACAAGCCAAGTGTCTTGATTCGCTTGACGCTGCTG", "fluorescence intensity": "12100 a.u."}
{"Sequence": "GGATCCCATCCAACACACGTGTTGAAATGACATCAGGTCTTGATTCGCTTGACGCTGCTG", "fluorescence intensity": "17700 a.u."}
{"Sequence": "GGCCTGGGTATTATCCTCATGACGCTCGTCAACAACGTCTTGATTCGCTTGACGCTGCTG", "fluorescence intensity": "4030 a.u."}
{"Sequence": "TCAGGTAGATCTTAGCACGTGTGGAAGCGCATAACAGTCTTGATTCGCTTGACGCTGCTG", "fluorescence intensity": "17500 a.u."}
{"Sequence": "CGGGGTTAAGTTTGCCTCGTGGGTGGCTTGCAGCAGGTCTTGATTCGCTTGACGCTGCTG", "fluorescence intensity": "12200 a.u."}
{"Sequence": "GAGTTTGTTTTCCTTCACATGATGAAGAAGGTTTGAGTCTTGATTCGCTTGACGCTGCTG", "fluorescence intensity": "4880 a.u."}
{"Sequence": "CGGAAATGGCACCATCACCTGAAAAAGAAAGTAATCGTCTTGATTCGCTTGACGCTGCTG", "fluorescence intensity": "3690 a.u."}
{"Sequence": "TTCTTTAATAAGTTGGTCGTGGGTACCTGCTGTTGCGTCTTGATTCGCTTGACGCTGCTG", "fluorescence intensity": "7300 a.u."}
{"Sequence": "CAGCTCGCCATCCTCCACGTTTTGGTAAGCTGCCGGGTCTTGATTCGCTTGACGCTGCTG", "fluorescence intensity": "12300 a.u."}
{"Sequence": "CGGGGTTAAGTTTGCGGAGTGGGTGGCTTGCAGCAGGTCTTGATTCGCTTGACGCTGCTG", "fluorescence intensity": "4210 a.u."}
{"Sequence": "AATCGTTGGCACCATCACGGGATTTTGACGAGGGGAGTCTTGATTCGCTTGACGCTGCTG", "fluorescence intensity": "4860 a.u."}
{"Sequence": "CGGGGTTAAGTTTTTCACGTGGTTTGCTTGCAGCAGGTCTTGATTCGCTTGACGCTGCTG", "fluorescence intensity": "12300 a.u."}
{"Sequence": "CGTCCTAGTGATTGCGGAGTGGGTGCCATGAGGAAGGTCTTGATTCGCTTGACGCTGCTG", "fluorescence intensity": "7620 a.u."}
{"Sequence": "AAAGCGGTAATTTGGTGGGTGGGTGCAGATATCTATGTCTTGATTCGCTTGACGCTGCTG", "fluorescence intensity": "5310 a.u."}
{"Sequence": "CATACCCAACCTTTTCACGTGACATAAGATATTTGTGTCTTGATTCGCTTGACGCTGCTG", "fluorescence intensity": "13400 a.u."}
{"Sequence": "TTTTATCTCCGATAGTACGTGGGACTTTATTTATGGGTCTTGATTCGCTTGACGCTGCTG", "fluorescence intensity": "7930 a.u."}
{"Sequence": "GATCTACTATCAGTTTTCGTGGCCGATGGGTTACATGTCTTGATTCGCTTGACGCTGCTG", "fluorescence intensity": "4040 a.u."}
